Experimental data gathered from unrelated publications.
A part holds a random share of what one study measured.

Series 1
Target: Sal-like protein 4, full length isoform B (SALL4, Homo sapiens, UniProt Q9UJQ4-2, residues 1-616)
Technique: universal PBM
Molecule type: double-stranded DNA, one strand shown
Matrix: in vitro
Tested at: not given
Setting: 8-mer, flanks averaged, mean of replicates
Direction: higher = stronger binding
Endpoint: E-score
CGTCCTTA: -0.0154
CATTAACA: 0.233
GAGCCTCC: -0.193
ACTAGCAG: -0.0768

Series 2
Target: Centromere-binding protein 1, full length, N-terminal tag (CBF1, Saccharomyces cerevisiae, UniProt P17106, residues 1-351)
UniProt P17106, sequence (whole entry, looked up): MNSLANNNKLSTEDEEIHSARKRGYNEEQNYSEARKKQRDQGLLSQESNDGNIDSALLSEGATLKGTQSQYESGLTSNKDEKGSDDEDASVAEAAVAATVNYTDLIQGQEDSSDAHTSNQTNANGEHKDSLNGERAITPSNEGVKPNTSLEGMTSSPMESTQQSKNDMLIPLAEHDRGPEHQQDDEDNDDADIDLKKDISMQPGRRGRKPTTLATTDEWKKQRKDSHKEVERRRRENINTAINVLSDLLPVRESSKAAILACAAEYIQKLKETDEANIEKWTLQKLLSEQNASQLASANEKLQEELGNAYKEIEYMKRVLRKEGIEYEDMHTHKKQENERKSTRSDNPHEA
Technique: protein-binding microarray
Molecule type: double-stranded DNA, one strand shown
Matrix: in vitro
Tested at: 0.8 µM
Setting: whole 60-bp probe, no competitor
Direction: higher = stronger binding
Endpoint: fluorescence intensity
CTACAGTTTTCCACATCCGTGATTTGGCGCAAATTCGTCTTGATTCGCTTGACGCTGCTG: 582 a.u.
CTAATTTTTGTTTCCTTCGTGACTTCTTTTGCATTCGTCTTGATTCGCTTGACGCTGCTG: 645 a.u.
CTATGGTTAAGTCATCAGGCGGCGCTCTTGAAGTTCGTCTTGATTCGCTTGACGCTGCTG: 524 a.u.
CTACTGCGTTAGCGTCACCTAGAAATCCCACTTTTCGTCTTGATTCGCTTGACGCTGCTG: 561 a.u.
CTATGTATTTCCTTTCACGTGATGCGCTGGGATTTCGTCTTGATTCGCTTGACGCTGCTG: 14600 a.u.
GAATTGCATCAACATGATGCAAAAAGTCGAAATTAGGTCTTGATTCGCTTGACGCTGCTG: 563 a.u.

Series 3
Target: Ras GTPase-activating protein-binding protein 1, RRM domain (G3BP1, Homo sapiens, UniProt Q13283)
UniProt Q13283, sequence (whole entry, looked up): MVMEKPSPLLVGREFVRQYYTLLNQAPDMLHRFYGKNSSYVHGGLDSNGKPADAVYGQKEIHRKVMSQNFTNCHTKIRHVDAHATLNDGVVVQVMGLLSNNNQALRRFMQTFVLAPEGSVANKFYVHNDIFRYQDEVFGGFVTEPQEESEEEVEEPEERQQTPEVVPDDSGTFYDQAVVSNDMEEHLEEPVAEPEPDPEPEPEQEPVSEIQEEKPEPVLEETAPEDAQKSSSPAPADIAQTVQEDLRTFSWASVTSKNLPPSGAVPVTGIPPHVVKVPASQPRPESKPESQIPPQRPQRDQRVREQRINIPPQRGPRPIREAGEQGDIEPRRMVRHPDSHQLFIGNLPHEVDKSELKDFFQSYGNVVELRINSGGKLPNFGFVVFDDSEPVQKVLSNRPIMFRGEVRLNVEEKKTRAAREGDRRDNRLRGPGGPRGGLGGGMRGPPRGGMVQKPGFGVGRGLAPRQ
Technique: RNA Bind-n-Seq
Molecule type: RNA
Matrix: in vitro
Tested at: 1 µM
Setting: whole 134-nt RNA, ends assumed
Together with: 150 mM KCl
Reference: input library
Direction: higher = stronger binding
Endpoint: log2 enrichment
GGGAGUUCUACAGUCCGACGAUCUGGGAUGUGGAUUUUGUUUAUUUUUUUAGCUCAUUUCCAGGGGUGGGAAUUUUUUUUUAAUAUGUGUCAUGAAUAAAGUUGUUUUUGAAAUGGAAUUCUCGGGUGUCAAGG: 2.21
GGGAGUUCUACAGUCCGACGAUCUCAAGUCCUGUGCUACACAUCGUAUGUACCGAAUCGGUUUUUGGUUUUUGGAGGAAAGUAUUAUGUUACGCCGUUCGGAUCUGCACUUCCUGGAAUUCUCGGGUGUCAAGG: -0.127
GGGAGUUCUACAGUCCGACGAUCUUCCUCAAGUCCUGUGCUACACAUCGUAUGUACCGAAUCGGCGGGCGGCGGAAAGUAUUAUGUUACGCCGUUCGGAUCUGCACUUCCAGCUGGAAUUCUCGGGUGUCAAGG: -0.0329
GGGAGUUCUACAGUCCGACGAUCCAAGUCCUGUGCUACACAUCGUAUGUACCGAAUCGGGAAAGGGGAAAGGGGAAAGGAAAGUAUUAUGUUACGCCGUUCGGAUCUGCACUUUGGAAUUCUCGGGUGUCAAGG: -0.309

Mixed results
PhoQ, residues 284 288 289 292 302 303 SQSLSM  fold induction (PhoP, residues 12 14 15 18 19 LHTVM (Escherichia coli, UniProt P23836); Sort-seq, refers to: YFP reporter; E. coli; PhoQ-PhoP variant library, together with: 10 µM Mg2+; reference: high Mg2+ state, higher = stronger signaling): 11.2
